Measurements gathered from unrelated publications.
A part holds a random share of what one study measured. Changes are numbered by the printed parent chain.

Sample 1 — target: CCNB1, cyclin fold, Cln2 fusion (human); technique: yeast growth competition, sequencing; sample: yeast; notes: weak parent motif; baseline: not given; reading: higher = stronger binding; endpoint: normalised enrichment score
Starting sequence: RBL1 docking peptide (human); GSAKRRLFGEDPP
GSAKRRLDGEDPP [F8D]: 0.198
GSAKRRLFGDDPP [E10D]: 0.848
GSAKRRLFGEYPP [D11Y]: 1.25
GHAKRRLFGEDPP [S2H]: 1.23
LSAKRRLFGEDPP [G1L]: 0.756
GSAKRRLFGEDQP [P12Q]: 0.203
GSANRRLFGEDPP [K4N]: 0.549
GSAKRRLFGNDPP [E10N]: 0.479
GSAKRRLFGEIPP [D11I]: 0.24
GSAKRRSFGEDPP [L7S]: 0.365
GSAKRRWFGEDPP [L7W]: 1.4
GSAKRRLIGEDPP [F8I]: 0.752
GSAKRRLFGHDPP [E10H]: -0.0566
GSAKRNLFGEDPP [R6N]: 0.532
SSAKRRLFGEDPP [G1S]: 0.915
GSAKRRLFLEDPP [G9L]: 1.64
GSAKNRLFGEDPP [R5N]: 0.343
ISAKRRLFGEDPP [G1I]: 1.5
GSAKRRFFGEDPP [L7F]: 0.17
GSAKRALFGEDPP [R6A]: 0.137
GSAKLRLFGEDPP [R5L]: 0.877
GSAKRRLFGEDPN [P13N]: 1.25
GSAKKRLFGEDPP [R5K]: 0.788
GSAKRRLFDEDPP [G9D]: 0.725

Sample 2 — technique: protein binding microarray; molecule type: double-stranded DNA, one strand shown; sample: in vitro; tested at: not given; baseline: not given; reading: higher = stronger binding; endpoint: E-score
Target: Histone acetyltransferase KAT6A, winged helix 2, GST fusion (KAT6A, Homo sapiens, UniProt Q92794, residues 85-181)
Notes: 8-mer, flanks averaged, mean of 2 arrays, mostly near background
Residues (chain): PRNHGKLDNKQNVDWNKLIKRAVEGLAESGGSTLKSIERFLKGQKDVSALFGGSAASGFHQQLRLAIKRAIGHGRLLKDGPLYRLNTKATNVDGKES
GCCATCGA: 0.052
ATAAAAAG: 0.0359
CGGCAACC: 0.129
ACCCAGGT: -0.209
AATCACCG: 0.00844
CCGACCTC: 0.193
CATGATGA: -0.108
ATCCCCAC: 0.068
GACGACGA: -0.138
GTTTTTGA: 0.0329
GTGATATA: -0.21
ACACAGGT: -0.149
ATAAACGA: 0.0218
ATATCGCA: -0.0559
CATTTTGC: 0.0666
CACACTAG: 0.0298
CCAGGATC: -0.0544
CGCATGCA: 0.0678
GATCACAC: -0.146
AAAGAGCA: 0.0724
GCACCTAA: 0.0335
GTTTTACA: -0.109
CCACAACG: 0.0819
AAATGGGT: -0.134

Sample 3 — technique: RNA Bind-n-Seq; molecule type: RNA; sample: in vitro; tested at: 365 nM; baseline: no-protein control; reading: higher = stronger binding; endpoint: RBNS enrichment (R)
Target: RNA binding protein fox-1 homolog 2, RRM domain, GST-SBP tag (RBFOX2, Homo sapiens, UniProt O43251-10, residues 100-194)
Notes: natural RNA segment, single round, ends assumed
Constant ends, left off below: GGGAGUUCUACAGUCCGACGAUC … UGGAAUUCUCGGGUGCCAA
Construct (chain): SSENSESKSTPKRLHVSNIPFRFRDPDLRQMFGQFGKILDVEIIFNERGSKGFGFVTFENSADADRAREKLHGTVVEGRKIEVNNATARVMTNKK
CUUGGGUGCAGCCAUCACUGGAUUUUGAUCGUCAGGCCAGCAGGAUGGAUGACAUCUCAUUGAUAGUACCCAGAUGUUGGUGGCUUUCUGAGUUGCCUGUUUACUGUUGA: 0.421
AACCAUCUCUCAUGGUUGUUAGCAAGAUGCCUAACACACUCAAGCAAACUAAGCACUGUCACUUUCCUUUCUGAACCAUCUCAGCCAAAAAGGCCACCAUGAGGACAUCU: 0.383
AUCUCUCCUCCACCUUGACAAAAGCAGAUUAUAGUAUACAAGGUAGGAAUUCCUGUCCUAUUUGAGAUGAACUAUAUCCUGUACCUCUGUGCUCUGUGUCUGCAUGAAGG: 2.44
UGUUAAAUAUGCACUGACCUCAGAAAGUCGAGUUCAAAAGGGAGAUAAAAUUGCCAAAGUGAUCCAAGGAUUGUGCAUGUUGGGAAACCCAUAUGAGAGAAAGGAUUCUC: 7.5
AGUUACCCUUUUAGUUUUACUGUGUUCUGUGAAAAUUUGUAAUUGGUUGAGAAUCACUGUGGGCGUCCAUUCUUAUUCAACUAAAUCUCCACAGGUUUUUUGAGCUGGUG: 0.442
AUAUGUGUGUGUAGGGGGAGGAUAAGAACUGAAUUAUUUGAAACAGGUUAUUAUUUGAAACUGUAUUACUCUACUCAGUAUUUUGGCCAGGUCCCAGUCCCGGGUUGCAG: 0.907
UCUUCUGAUGCCCCCAGACUCUUGGAGCACAUCCUGGUGCCCCUCCUGCAGGAGCCUGUGGCAUAUUUCCAGCUGGGCAUGCUGAUCCUCCUUGAGACACAGAUGCCUGU: 0.284
CGGUGGUGAUAUUUUUCAUCCCCAACCCAUUGGACUCCAUCAUAUAAUCAUGAGUCAUGCAGAGCCAAGAAAAGAAAUAUAUUAUGGUAUAUGUAAAGUGAUAUUUCGCU: 0.666
GCCCCUCCCACCUGCACAUGUCACACUGACCACAUCUGUAGACAUCUUGAGUUGUAGCUGCAGACGGGGACCAGUGGCUCCCAUUUUCAUUUUAGCCAUUUUGUCGCCUG: 0.676
UAGGAGCCUCUGUUCUUACCUAUUUCCAUAUACAGCUGCCUGGAGGAUGCUUUUUUUCCAGGACAGAUAGGUUCUGGAUCUCAGGGGUGAGAUAGGGGGCAGCCUUCAAU: 0.394
CUGUUUGUCAUAUCAGAAGCCAUGGAAUAAUAAACCCAGGGGAAUCCAGAAACCACACUUAGUGGUAACCCUGGUGCUCUCUAGAAUCUCCAAAUGAGCUGCUAUAAAAC: 0.38
GGAAGAUACAGGAGUCUGCCACCUGUCAUAGAAGGGUGCUGCCAACUUGAUGCUCUACCUGCCACCAACCACCAGGACUGAAGGAAGGAAACAGUACUGAGGGCAAAGUU: 0.664

Sample 4 — technique: RNA Bind-n-Seq; molecule type: RNA; sample: in vitro; tested at: not given; baseline: input RNA pool; reading: higher = stronger binding; endpoint: bound/input enrichment
Target: RING finger protein unkempt homolog, zinc fingers 1-6, GST-SBP tag (UNK, Homo sapiens, UniProt Q9C0B0, residues 30-357)
UniProt Q9C0B0, sequence (30-357, looked up): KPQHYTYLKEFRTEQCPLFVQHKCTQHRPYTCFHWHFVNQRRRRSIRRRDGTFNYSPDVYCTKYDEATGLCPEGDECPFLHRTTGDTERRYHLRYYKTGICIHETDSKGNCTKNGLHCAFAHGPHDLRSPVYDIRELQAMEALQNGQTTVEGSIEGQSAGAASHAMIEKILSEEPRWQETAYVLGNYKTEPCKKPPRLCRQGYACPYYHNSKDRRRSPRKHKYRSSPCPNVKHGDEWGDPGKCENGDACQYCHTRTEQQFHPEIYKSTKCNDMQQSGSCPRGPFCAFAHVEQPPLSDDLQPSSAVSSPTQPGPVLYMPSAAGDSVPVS
Notes: RNA with constant flanks, human and mouse sites, ends assumed
Constant ends, left off below: GGGAGUUCUACAGUCCGACGAUC … CAACAGAGGAUUGAGCAUCA
GACAGAAAGUACCACCUAAAGACAUACAGACAAUGCUGUGUUGGGACUGAGCUGGUAGACUGGAUGAUACAGCAGACAUCCUGUGUUCACUCGCGGACUCAAGCUGUUGGCAUGUGGCAA: 0.206 ratio
CGCCAGCCACUCGCCCCUGGCCUCGCGGGCCGUGUCUCCGGCAUCAUGUGUGGUAUAUUUGCUUACUUAAACUACCAUGUUCCUCGAACGAGACGAGAAAUCCUGGAGACCCUAAUCAAA: 0.144 ratio
UCCUUUAUGUAUUCUUCUCUACCGUAUAACACACUGAAACUGUAUCUACUUGCUGUGUUGCAAUAUUUUGCUGCUGGACUUUGACCUACUUGUAUUAUGCAGAAAGUUAAUGCAGAUACC: 0.397 ratio
GAGCUGAGUUUAAUCAGGUGUCCAAAAUGUGAGUUAAACAUUACCUUAUAUUUACACUGUUAGUUUUUAUUGUUUUAGAUUUAUUAUGCUUCUUCUGGAAGUAUUAGUGAUGCUACUUUU: 527 ratio
UCUGUUCAACCUUCCAGCUCCUUAAGUGCUAGGAUGAUGUCUGGAAGCAGAGGAAGUAGUUUAAAUGAUACCUAUCACUCAAGAGACUCUUCAUUUAGAUUGGAUUCUGAAUAUCAGUCU: 0.149 ratio
CUUGAAGACAGCUGUACUGUUGGAGAGAUCAAACAGAUUCUAGAAAAUGAGCUUCAGAUACCUGUGCCUAAAAUGCUGUUAAAAGGCUGGAAGACUGGAGACGUGGAAGACAGUACGGUC: 0.149 ratio
GUAGAUGGAACUUUUCUAGUGUGGCAUGUAAAGUAUUUGGAUGAAUAUAACCCUGGAAUAUUUAGACAAGUUCAGGUUUCUUUUUCCUCUCGGAUUCCUGUUGCAUUUCCCUCUGGGGAC: 0.576 ratio
CCUGGGGCUUUGGUGCAGUGCUUGAGGCUACCAAAGUUUGCAGAGGAGGAGACUCUUUGUAUAGACUCUAUAACUCCUUGUGCUGAUGGAAUUCAUUUGUUGGUAGGACUGCGGACAUGC: 0.124 ratio
GACCACGUUCUAUCUGUUCAUUUGUCUGGGUAUAGUCACUCCUGGUGAUGAUAUGGGCUGAAAUGUCUCCACGUCUCUUUGUGUCUUGUUGAAAAGAAACCCAAAGGAGUGUUGUGUGGA: 0.238 ratio
GUGAAAUUUGGAGAGAGCAUUGAGGACCUACAGACCUGCCGGCUCCUAAUUAAGCAUUACAUUCCACCAGGACUCUUUGUGGAUCCCUAUGAGUUGGCUUCACUACGAGAAAGGAACUUA: 0.399 ratio
GUUACAAAAGCCUCCCAUCGCUUGUGCCCUUACGGAUCGCAGCAUUGAAUGCUCUCGCUGCCUGCAAUUACCUACCUCAGUCCAGGGAGAAAAUCAUUGCUGCUCUUUUCAAAGCCCUCA: 0.113 ratio

Sample 5 — technique: universal PBM; molecule type: double-stranded DNA, one strand shown; sample: in vitro; tested at: 600 nM; reading: higher = stronger binding; endpoint: E-score
Target: Sal-like protein 4, full length isoform A (SALL4, Homo sapiens, UniProt Q9UJQ4, residues 1-1053)
UniProt Q9UJQ4, sequence (whole entry, looked up): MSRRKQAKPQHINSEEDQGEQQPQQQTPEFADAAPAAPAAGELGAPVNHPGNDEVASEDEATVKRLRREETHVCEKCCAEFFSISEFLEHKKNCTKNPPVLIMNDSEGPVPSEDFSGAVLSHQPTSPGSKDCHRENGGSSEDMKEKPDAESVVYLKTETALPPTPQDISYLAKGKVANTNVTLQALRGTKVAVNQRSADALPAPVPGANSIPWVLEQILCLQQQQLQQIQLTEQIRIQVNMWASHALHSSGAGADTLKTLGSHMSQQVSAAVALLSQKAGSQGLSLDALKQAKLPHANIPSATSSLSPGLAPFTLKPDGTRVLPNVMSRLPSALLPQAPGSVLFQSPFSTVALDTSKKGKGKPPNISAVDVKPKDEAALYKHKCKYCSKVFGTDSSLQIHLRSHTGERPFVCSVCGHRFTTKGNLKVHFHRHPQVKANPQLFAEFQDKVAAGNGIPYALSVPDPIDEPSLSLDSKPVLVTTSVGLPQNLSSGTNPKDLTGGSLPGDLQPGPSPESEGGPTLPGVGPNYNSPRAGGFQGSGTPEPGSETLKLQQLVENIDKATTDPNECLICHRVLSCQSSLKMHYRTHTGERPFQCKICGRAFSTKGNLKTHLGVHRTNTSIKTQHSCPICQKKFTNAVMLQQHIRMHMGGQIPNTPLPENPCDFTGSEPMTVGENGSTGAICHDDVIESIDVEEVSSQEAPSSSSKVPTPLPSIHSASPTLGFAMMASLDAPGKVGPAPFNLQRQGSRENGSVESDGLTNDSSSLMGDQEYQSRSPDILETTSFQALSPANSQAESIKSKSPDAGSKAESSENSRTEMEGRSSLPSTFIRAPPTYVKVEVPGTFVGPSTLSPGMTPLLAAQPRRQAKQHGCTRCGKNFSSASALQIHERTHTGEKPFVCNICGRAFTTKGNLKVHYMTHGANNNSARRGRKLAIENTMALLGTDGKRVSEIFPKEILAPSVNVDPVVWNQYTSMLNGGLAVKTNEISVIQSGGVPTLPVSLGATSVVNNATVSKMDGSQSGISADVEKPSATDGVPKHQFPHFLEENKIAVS
Notes: 8-mer, flanks averaged, mean of replicates
GCGTTACA: 0.163
GACTAGTC: -0.134
ATATGGAA: 0.31
GGCCCTAC: -0.339
AAATTGAC: 0.158
GCAGTGAA: 0.128
TCACGACA: 0.0367
CGGTCATC: -0.181
CCTATCCA: -0.111
AGTTCTCG: -0.0238
ATAAGTAT: 0.296
ATCCTCGC: -0.158
GGCGCGAC: -0.183
TAGGCTCA: -0.0812
CTCGGAGA: -0.154
CGCCTGCA: -0.269
AATGTTAT: 0.372
AACTTAGT: 0.0855
TGGCTTAA: 0.109
CGGGACTA: -0.187
AATGAGGC: -0.131
GCCAACCA: -0.166
ATCTATTG: 0.248
ATACAAAG: 0.304
GCAGTAAC: -0.0523

Sample 6 — technique: RNA Bind-n-Seq; molecule type: RNA; sample: in vitro; tested at: 200 nM; notes: whole 134-nt RNA, ends assumed; added: 150 mM LiCl; baseline: input library; reading: higher = stronger binding; endpoint: log2 enrichment; all molecules: 7-deaza-guanosine replaces G
Target: Fragile X messenger ribonucleoprotein 1, C-terminal low-complexity region (Fmr1, Mus musculus, UniProt P35922)
Constant ends, left off below: GGGAGUUCUACAGUCCGACGAUC … UGGAAUUCUCGGGUGUCAAGG
CUGUGCUACACAUCGUAUGUACCGAAUCGGGGUUUUUGGGGUUUUUUUGGGGAAAAAGGGGAAAGUAUUAUGUUACGCCGUUCGGAUCUG: -0.02
UCAAGUCCUGUGCUACACAUCGUAUGUACCGAAUCGGAAAGGGGAAAGGAAAGGAAAGUAUUAUGUUACGCCGUUCGGAUCUGCACUUCC: -0.778
CCUCAAGUCCUGUGCUACACAUCGUAUGUACCGAAUCGGGGUGGUGGGUGGGGAAAGUAUUAUGUUACGCCGUUCGGAUCUGCACUUCCA: -1
UCAAGUCCUGUGCUACACAUCGUAUGUACCGAAUCGGGGUUGGGGUUGGUUGGGAAAGUAUUAUGUUACGCCGUUCGGAUCUGCACUUCC: -0.52
ACCAUGCAGGUGGGCAUCUUUGGGAAGUGGGGCAAGGGGGGGAUAGGGAGGGGGGUAACACUUUGGGAACAGGUUGUCCCAGGUCGUUUC: 1.56
AGUCCUGUGCUACACAUCGUAUGUACCGAAUCGGGUUUUGGGUUUUGGGUUUUGGGGAAAGUAUUAUGUUACGCCGUUCGGAUCUGCACU: -1.17
UGUGCUACACAUCGUAUGUACCGAAUCGGGCCCCCCCGGGGCCCCCCCGGGGCCCCCCCGGGAAAGUAUUAUGUUACGCCGUUCGGAUCU: -2.01
CCUCAAGUCCUGUGCUACACAUCGUAUGUACCGAAUCGGUUUGGAGGAAAGGAAAGUAUUAUGUUACGCCGUUCGGAUCUGCACUUCCAG: -0.328
GCAGGAAGUAAAAACAAAUAGAAAUGCUUCGGAUAGUGGCAGGGGUGGGGGUUGCUAAGGAAAGGGUGGGAUGGGAGUGGGUAAAGAGUU: 1.19
CAAGUCCUGUGCUACACAUCGUAUGUACCGAAUCGGGGAAGGGGAAGGGGAAGGGGAAAGUAUUAUGUUACGCCGUUCGGAUCUGCACUU: -0.00729
CAAAAUACCAAGGGAUUUAUAUGAGGAUGAGUUGGUGCCCCUUUUUGAGAAGGCCGGACCCAUUUGGGAUCUACGUCUUAUGAUGGAUCC: 0.318

For quick reference, copied from above (sample 5):
CGCCTGCA: -0.269
AATGTTAT: 0.372
AACTTAGT: 0.0855
TGGCTTAA: 0.109
CGGGACTA: -0.187
AATGAGGC: -0.131
GCCAACCA: -0.166
ATCTATTG: 0.248
ATACAAAG: 0.304
GCAGTAAC: -0.0523
